Experimental data from different studies.
Protocols differ between the studies behind these lines. Several values in a cell are separate wells, animals, samples, runs or records. ± gives the spread as reported.

Structure (SMILES) | assay | system | conditions | scale | quantity | value
CCn1cc(C(=O)N2CCOCC2)c(=O)c2cc(NC3Cc4ccccc4C3)cnc21 | – | human, fasted | oral suspension, 5 mg single dose, arithmetic mean | – | Cmax | 45 ng/mL
CC(Oc1ccc(O)cc1)C(=O)O (centres unmarked) | – | human CSF | concentration not given, mean | – | CSF concentration | not detected
C=CCn1c(=O)c2cnc(Nc3ccc(N4CCN(C)CC4)cc3)nc2n1-c1cccc(C(C)(C)O)n1 | – | human | oral, 300 mg once daily, cycle 1 day 17, added: durvalumab 1500 mg IV | geometric mean | AUC(0-t) | 7.74 µM·h
O=C(O)/C=C/c1ccc(O)cc1 | – | human CSF | concentration not given, mean | – | CSF concentration | not detected
CC(=O)N(C)[C@H]1CCN(C(=O)c2cnc3c(c2)C[C@](C)(c2ccc(F)cc2)N3)C1 | item: Rhinitis | human | oral, 30 mg once daily | – | adverse event duration | 1 days
O=C(CCCN1CC=C(n2c(=O)[nH]c3ccccc32)CC1)c1ccc(F)cc1 | – | male Hartley guinea pigs, anaesthetized | intravenous, 0.3 mg/kg over 10 min, after infusion | – | heart rate | 200 ± 0.6 beats/min
CN1C(=O)[C@@H](NC(=O)c2nnc(Cc3ccccc3)[nH]2)COc2cccnc21 | phase I single ascending dose | human, male and female | oral, 400 mg, fasted | – | participants with any AE of special interest | 0%
O=C(NCc1ccc(CNC23CC4CC(CC(C4)C2)C3)cc1)c1csc2nc[nH]c(=O)c12 | – | human red blood cells in PBS | 1 h, 37 °C, estimated, weak activity | – | EC50 | > 100 µM
CCCC(CCC)C(=O)Oc1cccc(C(O)CCN)c1.O=CO (centres unmarked) | – | Abca4-/-Rdh8-/- mice, photic damage | intraperitoneal, 10 mg/kg, 7 days, flash intensity 10 | – | photopic S-cone ERG b-wave | 41.8 µV and 40.2 µV and 29.7 µV and 48.3 µV and 42.2 µV and 38.4 µV and 54.3 µV and 30.8 µV
Cc1c(-c2ccc(N3CCc4cccc(C(=O)Nc5nc6ccccc6s5)c4C3)nc2C(=O)O)cnn1CC12CC3(C)CC(C)(C1)CC(OCCNCC[C@H](O)CO)(C3)C2 | – | beagle dog, male, anaesthetised | intravenous infusion, 0.01 mg/kg/min, 30 min | relative to: baseline | mean arterial pressure change | 1 mmHg
Cc1c(C(=O)O)ccc2c3n(nc12)[C@@H]1[C@H](C3)N(CC2CC2)[C@@]2(C(=O)Nc3cc(Cl)ccc32)[C@H]1c1cccc(Cl)c1F | – | Chbb:Beagle dog, male, plasma | oral, 2 mg/kg | – | MRT total | 3.9 h
N[C@@H]1c2ccccc2OC12CCN(c1cnc3c(N4CCCc5ncccc54)n[nH]c3n1)CC2 | – | advanced metastatic solid tumour patients, plasma | oral, 40 mg once daily, cycle 1 day 15, geometric mean | – | AUC(0-tau) | 8210 ng·h/mL
CC(C)(C(=O)N1CCOc2c(C#N)cncc2C1)C(F)F | item: ALT increased | human | oral, 20 mg twice daily, 14 days, multiple ascending dose | – | subjects with adverse event | 0%
COc1cc(CC(=O)O)ccc1OS(=O)(=O)O | – | human CSF | concentration not given, mean | – | CSF concentration | not detected
Cc1cc(-c2nccc3c2ccn3CC(=O)Nc2ccc(-c3cnccn3)cn2)ccn1 | – | healthy human volunteers | oral, 7 mg single dose, single ascending dose | – | respiratory thoracic mediastinal TEAEs | 16.7%
COc1cccc(-c2n[nH]c(SCc3ccccn3)n2)c1OC | – | Sprague-Dawley rats, both sexes | oral dietary, 30 mg/kg/day, day 7, 24 h | – | plasma concentration | 575 ng/mL
COC(=O)N[C@H](C(=O)N[C@@H](Cc1ccccc1)[C@@H](O)CN(Cc1ccc(-c2ccccn2)cc1)NC(=O)[C@@H](NC(=O)OC)C(C)(C)C)C(C)(C)C | ultracentrifugation | phosphate buffer with HPMCAS | 15 min, pH 6.5, 3% BSA | – | amorphous solubility | 126 ± 7.7 µg/mL
Cc1noc(C)c1Cn1cc(N2C(=O)CN(Cc3cccc(O)c3)C2=O)cn1 | – | human liver microsomes | 10 µM, 10 min, pH 7.4 | – | parent remaining | 119%
CO[C@@H]1[C@H](O)[C@@H](CO)O[C@H]1n1c([N+](=O)[O-])nc2c(=O)[nH]c(N)nc21 | depurination, RP-HPLC | citrate-phosphate buffer 0.5 mM | 255 min, pH 2, 37 °C | – | nucleoside remaining fraction | 0.767
Cc1ccc(C(=O)N(CCCN)C(c2nc3snc(C)c3c(=O)n2Cc2ccccc2)C(C)C)cc1 (centres unmarked) | item: Stomatitis | human patients | intravenous, dose not given, CTCAE grade ≥3, all doses | – | patients with adverse events | 8%
C=CCN1CC(=O)N2[C@@H](Cc3ccc(O)cc3F)C(=O)N(Cc3cccc(N4CC(N5CCN(CC)CC5)C4)n3)C[C@@H]2N1C(=O)NCc1ccccc1 | – | advanced solid tumour patients | oral, 160 mg twice daily, grade ≥3, dose-escalation | – | treatment-related diarrhoea | 0%
O=C(Nc1nc2cccc(-c3ccc(CN4CCS(=O)(=O)CC4)cc3)n2n1)C1CC1 | item: nausea | human rheumatoid arthritis patients | oral, 30 mg once daily, 4 weeks, regardless of relatedness | – | treatment-emergent adverse events | 5.9%

Structure (SMILES) | assay | system | conditions | scale | quantity | value
C=CC(=O)NC1CCN(c2ncc3ncnc(Nc4ccc(Oc5ccc6c(c5)ncn6C)c(C)c4)c3n2)CC1 | item: total radioactivity | healthy male volunteers, whole blood | oral solution, 60 mg, added: [14C]-labelled compound | – | AUC(0-tz) | 38.7 µM·h
O=C1Cc2cc(CCN3CCN(c4nsc5ccccc45)CC3)c(Cl)cc2N1 | – | male Hartley guinea pigs, anaesthetized | intravenous, 0.3 mg/kg group, baseline before infusion | – | heart rate | 194 ± 0.6 beats/min
COc1cccc(OC)c1-c1cc(C(=O)NC2(C(=O)O)C3CC4CC(C3)CC2C4)nn1-c1ccc(C(=O)N(C)CCCN(C)CCCN(C)C(=O)CN2CCN(CC(=O)[O-])CCN(CC(=O)[O-])CCN(CC(=O)[O-])CC2)cc1C(C)C.[177Lu+3] (centres unmarked) | – | mouse HT-29 xenograft | 168 h, biodistribution | relative to: tumour over stomach | tumour-to-stomach ratio | 29.6
COc1cc2nccc(Oc3ccc(NC(=O)c4cc5c(n(-c6ccccc6)c4=O)CCCC5=O)nc3)c2cc1OC | – | human, relapsed/refractory AML | oral, 3 mg once daily, grade ≥3, any causality | – | patients with hypotension | 0%
Cc1nc(-c2ccc(OCC(C)C)c(C#N)c2)sc1C(=O)O | – | KM mouse, chronic hyperuricaemia model | dose not given, day 8 | – | body weight | 28.7 g and 32 g and 27.7 g and 32.6 g and 34.1 g and 29.2 g
COc1cc(Nc2ncc3c(n2)-c2ccc(Cl)cc2C(c2c(F)cccc2OC)=NC3)ccc1C(=O)O | – | patients | oral, dose not given, grade 4, any attribution, added: pembrolizumab | – | anaemia incidence | 4%
CCC(C)n1ncn(-c2ccc(N3CCN(c4ccc(OCC5COC(Cn6cncn6)(c6ccc(Cl)cc6Cl)O5)cc4)CC3)cc2)c1=O (centres unmarked) | – | healthy human volunteers | oral, 200 mg, compound alone cohort | – | incidence of gastrointestinal disorders | 7%
O=C(/C=C/CCc1ccc(O)cc1)/C=C/c1ccc(O)cc1 | – | nude mouse MCF7 xenograft | 20 mg/kg, day 4 | – | body weight | 20.4 ± 1.1 g
CCc1c(-c2ccccc2)c(-c2ccccc2)nn1-c1ccccc1-c1cccc(OCC(=O)O)c1 | – | female Sprague-Dawley rat, fat | oral, 10 mg/kg, 8 h | – | tissue distribution | 8.15%
CN1C[C@H](COc2nccc3c(NCc4ccco4)cc(Cl)nc23)OC1=O | – | rabbit NZW female, isolated Langendorff heart | 3 µM, 15 min | – | heart rate | 145 beats/min
COc1nc(-c2cc(C)c(N[C@@H](C)c3cc(F)cc(F)c3)nn2)ccc1-n1cnc(C)c1 | – | cynomolgus monkey, male, plasma | oral, 2 mg/kg | relative to: intravenous 1 mg/kg | oral bioavailability | 27.8%
COc1cc(N)c(Cl)cc1C(=O)NC1CCN(CCCOc2ccc(F)cc2)CC1OC (centres unmarked) | – | male Hartley guinea pigs, anaesthetized | intravenous, 0.3 mg/kg over 10 min, after infusion | – | heart rate | 208 ± 0.6 beats/min
CN(C(=O)n1cnc(-c2ccc[n+]([O-])c2)c1)[C@H]1CC[C@H](O)CC1 | – | Wistar rat, midbrain | oral, 10 mg/kg/day of BIA 10-2474, 72 h, repeated 5 days | – | concentration | 13.8 ± 0.4 ng/g
COc1ccc(CCNCCCC(C#N)(c2ccc(OC)c(OC)c2)C(C)C)cc1OC (centres unmarked) | equilibrium dialysis | human liver microsomes | 2 µM, 20 h, pH 7.4, 37 °C, 0.5 mg/mL scaled to 1 mg/mL | – | fu,mic | 0.71
CCc1cc(C(=O)NC)c2nccc(N3CCc4c(cc(Cn5ccnc5)cc4-c4cn(C)nc4C(F)(F)F)C3=O)c2c1 | – | Sprague Dawley rats | oral, 100 mg/kg once daily, 7 days | – | serum AST activity | 105 ± 2.87 U/L
CCN1/C(=C/C(C)=O)Sc2ccc(F)cc21 | – | cynomolgus monkey | oral, 10 mg/kg, 4 h post-dose | relative to: pre-dose | QTc interval change | 100 ± 1%
COc1ccc([C@@H](O)c2cc(-c3ncnc4cc(N5CCOCC5)ccc34)c(F)cc2Cl)nn1 | – | locally advanced rectal cancer patients | 150 mg, added: capecitabine and radiotherapy | – | lymphopenia TEAE incidence | 33%
CN(C(=O)n1cnc(-c2cccnc2)c1)[C@H]1CC[C@H](O)CC1 | – | rat, cortex | oral, 10 mg/kg daily for 5 days, 4 h | – | tissue concentration | 34.3 ± 5.7 ng/g
N#Cc1ccc2c(c1)[C@H]1CCCN(C(=O)c3ccc4[nH]cnc4c3)[C@H]1C2 | – | human females | 10 mg, day 15 | – | total testosterone level | 0.9 nmol/L
C[C@@H](Oc1ccc(S(C)(=O)=O)cc1C(=O)N1C[C@@H]2C[C@]2(c2cc(C(F)(F)F)on2)C1)C(F)(F)F | – | human | oral, 25 mg | – | incidence of Myalgia | 16.7%
[18F]c1ccc(-c2ccc3c(c2)[nH]c2ccncc23)cn1 | microPET/CT imaging | APP/PS1 mouse, AD model, brain | intravenous, 15 min | – | SUV | 0.754 ± 0.164
CCOc1c([C@H](C)n2nc(C)c3c(N)ncnc32)cc(Cl)c(F)c1[C@@H]1CNC(=O)C1 | – | patients, monotherapy | oral, 20 mg once daily, cycle 1 day 15 | – | Cmax geometric mean | 1220 nM
